# Published values of several laboratories.
# A part holds a random share of what one study measured.

# Study 1
# Target: Prothrombin, mature alpha-thrombin (F2, Homo sapiens, UniProt P00734)
# Method: aptamer microarray, sandwich
# Form: DNA with 2'F-ANA
# Matrix: in vitro
# Concentration: 200 nM
# Notes: whole 15-mer aptamer, many near background
# With: Cy3 exosite-II aptamer, 400 nM
# Direction: higher = stronger binding
# Strand: GGTTGGTGTGGTTGG
Modification,mean fluorescence intensity [a.u.]
2'F-ANA at 1 2 4 7 8 11 12 15,245
2'F-ANA at 1 2 7 8 10 11 13 14,55.5
2'F-ANA at 1 2 3 4 7 9 10 11 12 15,89
2'F-ANA at 1 2 3 4 5 10 13 14,51
2'F-ANA at 8 9 11 12 14 15,207
2'F-ANA at 2 3 5 7 14,53.2
2'F-ANA at 1 2 3 6 9 10 11 12 14,90.9
2'F-ANA at 1 3 4 8 10 13 15,60.5
2'F-ANA at 1 4 5 10 14 15,51.8
2'F-ANA at 1 2 3 4 8 9 13,204
2'F-ANA at 2 3 4 6 8 9 10 11 12 15,219
2'F-ANA at 1 3 5 6 10 13 15,54.6
2'F-ANA at 1 4 5 7 9 10 11 12 15,59.5
2'F-ANA at 1 2 9 10 14,136
2'F-ANA at 1 2 3 4 6 7 8 9 13,105
2'F-ANA at 1 4 5 8 10 12 13 14,46.3
2'F-ANA at 1 4 5 7 9 12 13 14,55.4
2'F-ANA at 2 4 5 8 10 13 14,43.1
2'F-ANA at 1 2 3 4 5 7 8 10 11 13 14 15,47.1
2'F-ANA at 1 3 4 7 8 10,78
2'F-ANA at 1 2 3 4 6 8 9 11 12,282
2'F-ANA at 1 2 3 4 6 9 12 14 15,84.4
2'F-ANA at 1 2 5 7 8 10 11 12 15,55.6
2'F-ANA at 6 7 9 11 12 15,586

# Study 2
# Target: Phosphate system positive regulatory protein PHO4, full length, GST-tagged (PHO4, Saccharomyces cerevisiae, UniProt P07270, residues 1-312)
# Method: competition protein-binding microarray
# Form: double-stranded DNA, one strand shown
# Matrix: in vitro
# Concentration: 2 µM
# Notes: whole 60-bp probe, lowest competitor level
# With: Cbf1 competitor, 0.05 µM
# Direction: higher = stronger binding
# All sequences stand within: … GTCTTGATTCGCTTGACGCTGCTG
# Target sequence (chain): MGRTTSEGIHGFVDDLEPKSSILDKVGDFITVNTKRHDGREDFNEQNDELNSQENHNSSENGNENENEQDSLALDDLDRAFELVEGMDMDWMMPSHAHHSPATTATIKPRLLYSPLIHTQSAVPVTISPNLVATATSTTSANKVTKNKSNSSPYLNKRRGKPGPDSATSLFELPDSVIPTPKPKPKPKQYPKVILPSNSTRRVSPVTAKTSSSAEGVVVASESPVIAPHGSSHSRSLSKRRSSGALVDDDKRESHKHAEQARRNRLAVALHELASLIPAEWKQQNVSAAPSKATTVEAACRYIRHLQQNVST
Strand,fluorescence intensity
ACATACCATATCCTGAACGTGAAGATCCCAGATGGA,8190 a.u.
CTTCTGTAAATTTTTCACGTGCCTTGACGCGCCCCG,15000 a.u.
TACAGCATATTTCGTCACGTGTGTTCGTCGAGCTGG,13900 a.u.
TCACGGAACAACCGTCAGCGGAGATTAGAGAAGCCT,3230 a.u.
GTTCTTGCGATGAGCTGCCCTTGCAAATTTTTCACC,5170 a.u.
AGGCTGCTTGATGTATTCGTGCGGAAAAAAAAAAAG,6820 a.u.
TTGAGAGTTTCCCATCACGTGGTCGCCTTGCATCGC,13600 a.u.
CGGTCGGATGGAAAACACGTGACAAGAAAGTCCCCG,14600 a.u.
CTAACGAAGGTTTGCCTGGTGGGTGACAAGCCAAGT,4180 a.u.
CTGTAAGATAAGGGACATGTGGCCTGGGAACTCCTG,10000 a.u.
CTACCAATGTAGTCAAACGTGAAGCCGGGCTTGGAA,6140 a.u.
TGTTCAAAAAGCCATCACGTGGAACCCCGAAAAAAA,14500 a.u.
TGCCTCTTTTTTCTACACATGCAGTGTTAAATCCCA,8180 a.u.
CACAATTGGTGGTGGACCGTGACGGACACCCAAAGC,5270 a.u.
GTCCGGTTTCAGGAACACGTGTGGAAAATACAGGGC,17000 a.u.
CTAACGAAGGTTTGCATTGTGGGTGACAAGCCAAGT,4880 a.u.
AGGCAAGGCGTACATGGCGTGACGGAGGGTTCAATG,5310 a.u.
CTAACGAAGGTTTGCAGGGTGGGTGACAAGCCAAGT,4270 a.u.
ATTTGCATATTCGACTTCGTGCAAACAGAAATGCGG,6530 a.u.

# Study 3
# Target: Histone acetyltransferase KAT6A, winged helix 2, GST fusion (KAT6A, Homo sapiens, UniProt Q92794, residues 85-181)
# Method: protein binding microarray
# Form: double-stranded DNA, one strand shown
# Matrix: in vitro
# Concentration: not given
# Notes: 8-mer, flanks averaged, mean of 2 arrays, mostly near background
# Baseline: not given
# Direction: higher = stronger binding
# Residues (chain): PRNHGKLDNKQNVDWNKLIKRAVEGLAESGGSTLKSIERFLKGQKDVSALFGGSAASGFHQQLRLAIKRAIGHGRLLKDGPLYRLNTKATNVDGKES
Strand,E-score
GGAGGAGA,0.0483
AGGGTAGC,-0.00609
GGCCATAA,-0.0807
ACTCCAAC,0.0925
AGGCCAGG,0.0493
GATTATCA,6e-05
GATTCTTA,0.109
AACATTCG,-0.109
ATAAGCTG,-0.106
AGATTCGG,0.0681
GTGCACGA,-0.0868
AACATCGT,-0.00675
TAACCGTA,-0.178
AAAAAATC,0.0507
AATGTCCT,-0.284
ACATTAAA,-0.00417
GTACAGCA,0.108
ATCACGGG,-0.139
TAGTTTAA,0.175
AGTTGCGA,0.117
ATGCTGTG,0.105
CTCGTGCC,-0.0129
ATCGGAGA,0.116
CACATATC,-0.129
CCGTGCAG,-0.0976

# Study 4
# Target: Fragile X messenger ribonucleoprotein 1, C-terminal low-complexity region (Fmr1, Mus musculus, UniProt P35922)
# Method: RNA Bind-n-Seq
# Form: RNA
# Matrix: in vitro
# Concentration: 200 nM
# Notes: whole 134-nt RNA, ends assumed
# With: 150 mM LiCl
# Baseline: input library
# Direction: higher = stronger binding
# Library: 7-deaza-guanosine replaces G
# All sequences stand within: GGGAGUUCUACAGUCCGACGAUC … UGGAAUUCUCGGGUGUCAAGG
Strand,log2 enrichment
CAAGUCCUGUGCUACACAUCGUAUGUACCGAAUCGGUUUUUUUGGUGGUUUUUGGAAAGUAUUAUGUUACGCCGUUCGGAUCUGCACUUC,-1.06
UGUGCUACACAUCGUAUGUACCGAAUCGGGGCCCCCCCGGGGCCCCCCCGGGGCCCCCCCGGAAAGUAUUAUGUUACGCCGUUCGGAUCU,-1.63
GGAGGAAGUAAAAACAAAUGGAAAUGCUUCGGAUAGUGGCAGGGGUGGGGGUUGCUAAGGAAAGGGUGGGAUGGGAGUGGGUAAAGAGUU,1.65
CUGUGCUACACAUCGUAUGUACCGAAUCGGGGAAAAAAAGGAAAAAAAGGGGAAAAAAAGGAAAGUAUUAUGUUACGCCGUUCGGAUCUG,0.0948
CUCAAGUCCUGUGCUACACAUCGUAUGUACCGAAUCGGGAAGGGAAGGGAAGGAAAGUAUUAUGUUACGCCGUUCGGAUCUGCACUUCCA,-0.459
GUCCUGUGCUACACAUCGUAUGUACCGAAUCGGUUUUUGGGUUUUUGGGUUUUUGGGGAAAGUAUUAUGUUACGCCGUUCGGAUCUGCAC,-0.774
CACAGACAACACGCACCCACACAGACACAGAGGGAAGGGGUUGGGAUGGGGACAGGGUGCACAGCAGGGCGGGGUAGGACCCAAACCCCU,-0.406
CCUGUGCUACACAUCGUAUGUACCGAAUCGGGAAAAAAAGGAAAAAAAGGAAAAAAAGGGGAAAGUAUUAUGUUACGCCGUUCGGAUCUG,-0.128

# Excerpt of the above (study 1):
Modification,mean fluorescence intensity [a.u.]
2'F-ANA at 1 2 3 6 9 10 11 12 14,90.9
2'F-ANA at 1 3 4 8 10 13 15,60.5
2'F-ANA at 1 4 5 10 14 15,51.8
2'F-ANA at 1 2 3 4 8 9 13,204
2'F-ANA at 2 3 4 6 8 9 10 11 12 15,219
2'F-ANA at 1 3 5 6 10 13 15,54.6
